Published values of several laboratories.
A part holds a random share of what one study measured.

Sample 1
Target: RING finger protein unkempt homolog, zinc fingers 1-6, GST-SBP tag (UNK, Homo sapiens, UniProt Q9C0B0, residues 30-357)
UniProt Q9C0B0, sequence (30-357, looked up): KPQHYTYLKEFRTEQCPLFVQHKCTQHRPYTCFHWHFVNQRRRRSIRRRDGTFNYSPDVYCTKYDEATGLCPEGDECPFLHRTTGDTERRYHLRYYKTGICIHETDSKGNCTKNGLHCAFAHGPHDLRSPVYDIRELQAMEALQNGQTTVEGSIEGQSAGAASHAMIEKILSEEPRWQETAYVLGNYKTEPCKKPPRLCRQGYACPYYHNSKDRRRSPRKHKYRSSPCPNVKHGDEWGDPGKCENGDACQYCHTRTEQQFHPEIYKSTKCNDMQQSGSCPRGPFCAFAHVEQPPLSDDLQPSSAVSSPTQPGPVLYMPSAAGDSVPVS
Method: RNA Bind-n-Seq
Molecule type: RNA
Matrix: in vitro
Concentration: not given
Notes: RNA with constant flanks, human and mouse sites, ends assumed
Reference: input RNA pool
Reading: higher = stronger binding
`GGGAGUUCUACAGUCCGACGAUCAAACAGCCUGAGAAAGUGGCAGCUACCAGGCAGGAGAUCUUCCAGGAGCAGUUGGCAGCAGUGCCAGAGUUCCGCGGUCUUGGGCCCCUCUUCAAGUCCUCGCCUGAGCCCGUGGCCCUCCAACAGAGGAUUGAGCAUCA` gave a bound/input enrichment of 0.116 ratio.
`GGGAGUUCUACAGUCCGACGAUCCACACCCUGGCCGCCUACUACCCCGACCUGCCCACCCCAGAACAGCAGCAAGACAUGGCCCAGUUCAUACAUUUAUUUUCUAAGUUUUACCCCUGUGAGGAGUGUGCUGAAGACCUAAGACAACAGAGGAUUGAGCAUCA` has a bound/input enrichment of 0.399 ratio.
The bound/input enrichment of `GGGAGUUCUACAGUCCGACGAUCAAUGGAGUGACUUUGCGUAGGCUUGCGGGUGUCCAGGCCGCCUAGGCUGGAGAGAAAGCCAGUAGAAAUAGAUAUGAUUGUAGGAAAAGACCGGGAAGGUUUCUUUACCAACGGUUUGACCAACAGAGGAUUGAGCAUCA` is reported as 15.5 ratio.
`GGGAGUUCUACAGUCCGACGAUCUUGGCAGGAAAUAUCCAAGAUCCAGAUGAGCCCAUUUUAGAAUUCAGCUUAGCUUGCAGUGAGCUGCACACUCCAUCGCUAGAUCGAAAACCAAAUAGUUUUGUGGCUGUGAGUGUCACCCAACAGAGGAUUGAGCAUCA` has a bound/input enrichment of 1.35 ratio.

Sample 2
Target: Histone acetyltransferase KAT6A, winged helix 1, GST fusion (KAT6A, Homo sapiens, UniProt Q92794, residues 1-85)
Method: protein binding microarray
Molecule type: double-stranded DNA, one strand shown
Matrix: in vitro
Concentration: not given
Notes: 8-mer, flanks averaged, mean of 2 arrays, mostly near background
Reference: not given
Reading: higher = stronger binding
Target sequence (chain): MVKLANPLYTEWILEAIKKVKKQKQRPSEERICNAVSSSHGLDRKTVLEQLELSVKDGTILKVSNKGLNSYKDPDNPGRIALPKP
The E-score of `AAACGCCT` is reported as 0.0192.
`TGCTGCAA` gave an E-score of -0.229.
`CCCGGGGA` gave an E-score of 0.224.
For `CTCGGCCA`, the E-score was -0.021.
For `AGCGCGGA`, the E-score was 0.283.
`GCCCGTCA` has an E-score of 0.37.
The E-score of `CCCAGTAG` is reported as -0.132.

Sample 3
Target: Interferon regulatory factor 5, full length, phosphomimetic (IRF5, Homo sapiens, UniProt Q13568-2, residues 1-514, K96S/S451D/S453D/S456D/S462D)
Method: protein-binding microarray
Molecule type: double-stranded DNA, one strand shown
Matrix: in vitro
Concentration: 250 nM
Notes: 60-bp whole probe
Added: salmon DNA 0.4 mg/ml
Reference: random background probes
Reading: higher = stronger binding
Constant ends, left off below: GCCTAGCAC … GTGCTAGGTCTTGATTCGCTTGACGCTGCTG
`TTAGGTCTCCCTCTCCTTTA` gave a log fluorescence of -0.151 z-score.
The log fluorescence of `TACGATTCCAGTTTCGAGAC` is reported as 5.43 z-score.
For `GACGATTTCAGTTCCGAGAC`, the log fluorescence was 1.38 z-score.
`GACGATATCAGTCTCGATAC` has a log fluorescence of 2.09 z-score.
`AACGGTATCGGACTGGGGAC` gave a log fluorescence of 1.24 z-score.

Mixed results
The fold induction of `PhoQ, residues 284 288 289 292 302 303 ALVSVA` is reported as 3.88 (PhoP, residues 12 14 15 18 19 LHSVW (Escherichia coli, UniProt P23836); Sort-seq, item: YFP reporter; E. coli; PhoQ-PhoP variant library, added: 10 µM Mg2+; reference: high Mg2+ state, higher = stronger signaling).

Repeated from above (sample 3):
`TTAGGTCTCCCTCTCCTTTA` gave a log fluorescence of -0.151 z-score.
The log fluorescence of `TACGATTCCAGTTTCGAGAC` is reported as 5.43 z-score.
